# Published values pooled from the literature.
# Every numbered part comes from another study and shows a few of its results, in no order. Changes are numbered by the printed parent chain.

# Block 1
# Target: CCND1, cyclin fold, Cln2 fusion (human)
# Method: yeast growth competition, sequencing
# Medium: yeast
# Notes: weak parent motif
# Relative to: not given
# Direction: higher = stronger binding
# Starting sequence: RB1 docking peptide (human); PKPLKKLRFDIEG
Substitution,normalised enrichment score
PKPLKKLRFDIQG [E12Q],-0.2
PKPLKKDRFDIEG [L7D],-0.856
PKPLKKLRFDIEY [G13Y],-1.03
PKPLKKLRFDING [E12N],-0.0643
PKPLKKLRFDREG [I11R],-0.875
PKPLPKLRFDIEG [K5P],0.76
PRPLKKLRFDIEG [K2R],0.243
PKPLKKLRFDISG [E12S],-0.554
PKPIKKLRFDIEG [L4I],0.726
PKPLKKLRNDIEG [F9N],0.734

# Block 2
# Target: Phosphate system positive regulatory protein PHO4, full length, GST-tagged (PHO4, Saccharomyces cerevisiae, UniProt P07270, residues 1-312)
# Method: competition protein-binding microarray
# Molecule type: double-stranded DNA, one strand shown
# Medium: in vitro
# Concentration: 2 µM
# Notes: whole 60-bp probe, lowest competitor level
# With: Cbf1 competitor, 0.05 µM
# Direction: higher = stronger binding
# Residues (chain): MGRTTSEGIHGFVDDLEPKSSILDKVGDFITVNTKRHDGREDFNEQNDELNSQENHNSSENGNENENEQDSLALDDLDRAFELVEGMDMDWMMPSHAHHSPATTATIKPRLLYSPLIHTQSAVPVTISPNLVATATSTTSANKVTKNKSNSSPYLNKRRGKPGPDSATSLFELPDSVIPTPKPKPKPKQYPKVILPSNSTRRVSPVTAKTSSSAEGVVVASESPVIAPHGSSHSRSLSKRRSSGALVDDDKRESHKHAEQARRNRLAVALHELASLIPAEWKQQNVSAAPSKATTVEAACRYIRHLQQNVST
Oligonucleotide,fluorescence intensity [a.u.]
TGCGCAACAACTTGACTTGTGGGTGTATGTCTAGAAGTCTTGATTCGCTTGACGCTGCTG,5020
GGCCCAATGGAGCGTCACACTTTTAAACTTTCTAAAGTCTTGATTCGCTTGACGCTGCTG,3940
TGCAAATATCGAAAGCACGTTTTTACTCAGCCCGTCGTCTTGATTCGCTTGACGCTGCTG,15500
TGGAAGGAAAAACAGCACGCTTGTAAGGGGGATGGGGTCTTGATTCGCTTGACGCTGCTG,7670
CGGTGATAGCGGTTTCACGTGTGTTGATTGTGGTACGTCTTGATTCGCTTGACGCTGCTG,11500
AGGAAAAGCCAAGATCATAAGCAAGAAAGTTATCCTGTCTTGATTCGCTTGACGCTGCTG,2380
TTATCTCAGTGGGTTTACGTGGGTATAGATTACGCTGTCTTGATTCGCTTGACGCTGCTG,5200
CATCTTCAATATCCAGACGTGCAAAATGTTTCAATAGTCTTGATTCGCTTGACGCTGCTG,6790
CATACCCAACCTTGTTCGGTGGGTGAAGATATTTGTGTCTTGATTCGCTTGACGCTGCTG,3530
CGGGGTTAAGTTTTTCACGTGCACTGCTTGCAGCAGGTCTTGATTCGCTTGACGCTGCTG,12100
CGATGGATATATTGTCATGCGGATGCATTTTGGCTGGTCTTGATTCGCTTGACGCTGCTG,6930
TGTTGAATGCTAACAGACGTGGGTAAGCCAAGACTGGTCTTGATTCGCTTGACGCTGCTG,5950
CTGGAATGGCTCGGCCACATGGGTGGGATTACCCGCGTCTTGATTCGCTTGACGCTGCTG,8980

# Block 3
# Target: Ras GTPase-activating protein-binding protein 1, full length (G3BP1, Homo sapiens, UniProt Q13283)
# Chain of UniProt Q13283 (whole entry, looked up): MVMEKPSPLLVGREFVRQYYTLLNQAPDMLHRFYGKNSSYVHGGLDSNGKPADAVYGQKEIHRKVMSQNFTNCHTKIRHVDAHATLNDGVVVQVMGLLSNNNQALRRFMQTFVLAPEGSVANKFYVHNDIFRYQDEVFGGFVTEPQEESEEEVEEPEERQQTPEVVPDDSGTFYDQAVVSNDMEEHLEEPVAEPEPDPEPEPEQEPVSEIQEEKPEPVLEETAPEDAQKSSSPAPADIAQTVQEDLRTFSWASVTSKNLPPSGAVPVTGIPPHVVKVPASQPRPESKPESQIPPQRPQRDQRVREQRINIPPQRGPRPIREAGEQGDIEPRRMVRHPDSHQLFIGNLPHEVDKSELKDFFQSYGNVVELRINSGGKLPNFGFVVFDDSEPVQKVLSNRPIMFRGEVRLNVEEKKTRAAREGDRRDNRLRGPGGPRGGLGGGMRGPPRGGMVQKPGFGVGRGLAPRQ
# Method: RNA Bind-n-Seq
# Molecule type: RNA
# Medium: in vitro
# Concentration: 200 nM
# Notes: whole 134-nt RNA, ends assumed
# With: 150 mM LiCl
# Relative to: input library
# Direction: higher = stronger binding
# All molecules: 7-deaza-guanosine replaces G
Oligonucleotide,log2 enrichment
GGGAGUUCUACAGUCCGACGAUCAAGUCCUGUGCUACACAUCGUAUGUACCGAAUCGGGAGGGUUUUUUUGGGUUUGGGAAAGUAUUAUGUUACGCCGUUCGGAUCUGCACUUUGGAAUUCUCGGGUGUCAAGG,-1.04
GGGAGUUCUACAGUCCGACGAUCGUCCUGUGCUACACAUCGUAUGUACCGAAUCAAACCCCCAAACCCAAAUUUUUUUAAAAAAGUAUUAUGUUACGCCGUUCGGAUCUGCACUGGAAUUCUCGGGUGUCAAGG,1.06
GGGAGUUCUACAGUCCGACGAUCCCUGUGCUACACAUCGUAUGUACCGAAUCGGGUUUUUUUGGGAAAAAAAGGGUUUUUGGGAAAGUAUUAUGUUACGCCGUUCGGAUCUGCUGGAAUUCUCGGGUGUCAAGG,-2.67
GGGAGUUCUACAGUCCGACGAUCCAAGUCCUGUGCUACACAUCGUAUGUACCGAAUCGGGAGGGAAAGGGUUUUUGGGAAAGUAUUAUGUUACGCCGUUCGGAUCUGCACUUCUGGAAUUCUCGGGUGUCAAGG,-0.517
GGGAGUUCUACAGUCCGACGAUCUAACUUUAGAGGAGGAUCUGAUGGAUAUGGCAAUGGACGUGGAUUUGGGGAUGGCUAUAAUGGGUAUGGAGGAGGACCUGGAGGUGGCAAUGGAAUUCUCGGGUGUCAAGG,-0.166
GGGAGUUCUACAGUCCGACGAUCAAGUCCUGUGCUACACAUCGUAUGUACCGAAUCGGGGAGGGGUUUUUGGGGAGGGGAAAGUAUUAUGUUACGCCGUUCGGAUCUGCACUUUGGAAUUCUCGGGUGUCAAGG,0.729
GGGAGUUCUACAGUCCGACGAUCACCAUGCAGGUGGGCAUCUUUGGGAAGUGGGGCAAGGGGGGGAUAGGGAGGGGGGUAACACUUUGGGAACAGGUGGUAAAAGGUCGUUUCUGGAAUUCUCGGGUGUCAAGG,-0.152
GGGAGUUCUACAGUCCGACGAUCACCAUGCAGGUGGGCAUCUUUGGGAAGUGGGGCAAGGGGGGGAUAGGGAGGGGGGUGACACUUUGGGAACAGGUGGUCCCAGGUCGUUUCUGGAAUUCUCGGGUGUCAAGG,0.149
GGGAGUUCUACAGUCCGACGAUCAAGUCCUGUGCUACACAUCGUAUGUACCGAAUCGGGGCCCCGGGCCCCGGGCCCCGGAAAGUAUUAUGUUACGCCGUUCGGAUCUGCACUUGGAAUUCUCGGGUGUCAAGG,-0.36
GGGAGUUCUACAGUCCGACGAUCCCUCAAGUCCUGUGCUACACAUCGUAUGUACCGAAUCGGUUUUUGGAGGUGGAAAGUAUUAUGUUACGCCGUUCGGAUCUGCACUUCCAGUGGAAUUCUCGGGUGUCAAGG,0.0567
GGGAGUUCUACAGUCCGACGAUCCCUGUGCUACACAUCGUAUGUACCGAAUCGGGUUUUUUGGGGUUUUUUGGGGUUUUUUGGAAAGUAUUAUGUUACGCCGUUCGGAUCUGCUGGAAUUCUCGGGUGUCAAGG,1.06

# Single results of other studies
Molecule,target,assay,system,setting,how to read,quantity,value
"PhoQ, residues 284 288 289 292 302 303 SLSVQF","PhoP, residues 12 14 15 18 19 TQCLL (Escherichia coli, UniProt P23836)","Sort-seq, measured: YFP reporter",E. coli,"PhoQ-PhoP variant library, with: 10 µM Mg2+","relative to: high Mg2+ state, higher = stronger signaling",fold induction,6.8

# Some of these lines once more (block 2):
Oligonucleotide,fluorescence intensity [a.u.]
AGGAAAAGCCAAGATCATAAGCAAGAAAGTTATCCTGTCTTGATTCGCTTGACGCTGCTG,2380
TGTTGAATGCTAACAGACGTGGGTAAGCCAAGACTGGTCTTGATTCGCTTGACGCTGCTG,5950
TTATCTCAGTGGGTTTACGTGGGTATAGATTACGCTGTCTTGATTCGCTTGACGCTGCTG,5200
CATCTTCAATATCCAGACGTGCAAAATGTTTCAATAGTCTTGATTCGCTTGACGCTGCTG,6790
